Published values collected from several papers.
Numbered parts are unrelated; each lists some results of a single study.

Series 1 — technique: protein binding microarray; molecule type: double-stranded DNA, one strand shown; medium: in vitro; concentration: not given; reference: not given; reading: higher = stronger binding
Target: Histone acetyltransferase KAT6A, winged helix 1, GST fusion (KAT6A, Homo sapiens, UniProt Q92794, residues 1-85)
Setting: 8-mer, flanks averaged, mean of 2 arrays, mostly near background
Residues (chain): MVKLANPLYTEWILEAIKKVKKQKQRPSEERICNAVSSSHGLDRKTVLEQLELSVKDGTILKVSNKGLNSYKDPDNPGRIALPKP
| Oligonucleotide | E-score |
| --- | --- |
| ATAGTTAC | -0.00105 |
| AACTCTAA | -0.16 |
| AATCCTCC | -0.114 |
| AACCATTG | -0.037 |
| CATAGACA | -0.107 |
| AGCACAGG | -0.0969 |
| ATTATATA | -0.115 |
| ATATATCA | -0.199 |
| AATCTACA | -0.155 |
| CCCCCGGA | 0.048 |
| CCGCTAGG | 0.235 |
| GATGTAGA | -0.0315 |
| CGACTACC | 0.00471 |
| CTGGTTGA | -0.4 |
| AATCCGAC | 0.231 |
| GGAAGGTA | 0.154 |

Series 2 — technique: universal PBM; molecule type: double-stranded DNA, one strand shown; medium: in vitro; concentration: 600 nM; reading: higher = stronger binding
Target: Sal-like protein 4, full length isoform A (SALL4, Homo sapiens, UniProt Q9UJQ4, residues 1-1053)
UniProt Q9UJQ4, sequence (whole entry, looked up): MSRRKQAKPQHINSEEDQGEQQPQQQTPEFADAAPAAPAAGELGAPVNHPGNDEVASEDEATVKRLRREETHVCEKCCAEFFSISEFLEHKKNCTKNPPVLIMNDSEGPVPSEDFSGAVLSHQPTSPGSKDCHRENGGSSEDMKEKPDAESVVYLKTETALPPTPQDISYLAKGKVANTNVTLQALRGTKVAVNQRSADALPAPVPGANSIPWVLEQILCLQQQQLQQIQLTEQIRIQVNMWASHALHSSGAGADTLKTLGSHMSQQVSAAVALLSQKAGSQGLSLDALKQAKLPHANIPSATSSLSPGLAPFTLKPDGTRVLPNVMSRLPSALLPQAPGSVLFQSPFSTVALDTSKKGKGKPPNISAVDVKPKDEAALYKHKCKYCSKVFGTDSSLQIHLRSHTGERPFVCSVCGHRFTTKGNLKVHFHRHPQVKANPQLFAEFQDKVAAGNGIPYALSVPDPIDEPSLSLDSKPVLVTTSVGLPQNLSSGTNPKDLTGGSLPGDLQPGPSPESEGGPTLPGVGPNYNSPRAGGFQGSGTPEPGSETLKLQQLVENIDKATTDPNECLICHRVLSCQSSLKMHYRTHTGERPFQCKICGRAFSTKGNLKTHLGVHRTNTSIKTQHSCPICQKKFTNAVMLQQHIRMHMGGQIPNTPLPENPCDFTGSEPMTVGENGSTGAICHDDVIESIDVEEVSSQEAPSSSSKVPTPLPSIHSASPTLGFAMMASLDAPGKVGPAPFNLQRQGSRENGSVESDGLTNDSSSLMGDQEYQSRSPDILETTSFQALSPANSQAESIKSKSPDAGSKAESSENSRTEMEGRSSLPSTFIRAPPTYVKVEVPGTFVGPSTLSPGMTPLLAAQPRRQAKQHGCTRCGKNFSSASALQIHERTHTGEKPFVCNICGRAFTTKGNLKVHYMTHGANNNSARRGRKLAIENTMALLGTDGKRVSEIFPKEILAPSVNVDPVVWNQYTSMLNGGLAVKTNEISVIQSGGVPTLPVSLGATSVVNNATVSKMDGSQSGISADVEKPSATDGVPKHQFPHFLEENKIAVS
Setting: 8-mer, flanks averaged, mean of replicates
| Oligonucleotide | E-score |
| --- | --- |
| CCAACTAA | 0.0786 |
| AGATGTAG | 0.0392 |
| ATGTCGGG | -0.0683 |
| CTCTAATA | 0.318 |
| ATGGCCAT | 0.0268 |
| ACAGTAAA | 0.289 |
| CGCCTCGA | -0.179 |
| ATTGCGTA | 0.14 |
| CCTAAATC | 0.00251 |
| CAGCCTTC | -0.24 |
| ATACTTAG | 0.172 |
| ACCGGTAG | -0.268 |
| CCAAATTC | 0.075 |
| ATCCGAAA | 0.0455 |
| CTCTTTTA | 0.0544 |
| AGCTGTTA | 0.059 |
| ACTTGCAG | 0.00445 |

Series 3 — technique: RNA Bind-n-Seq; molecule type: RNA; medium: in vitro; concentration: 1 µM; setting: whole 134-nt RNA, ends assumed; together with: 150 mM KCl; reference: input library; reading: higher = stronger binding
Target: Ras GTPase-activating protein-binding protein 1, RRM domain (G3BP1, Homo sapiens, UniProt Q13283)
UniProt Q13283, sequence (whole entry, looked up): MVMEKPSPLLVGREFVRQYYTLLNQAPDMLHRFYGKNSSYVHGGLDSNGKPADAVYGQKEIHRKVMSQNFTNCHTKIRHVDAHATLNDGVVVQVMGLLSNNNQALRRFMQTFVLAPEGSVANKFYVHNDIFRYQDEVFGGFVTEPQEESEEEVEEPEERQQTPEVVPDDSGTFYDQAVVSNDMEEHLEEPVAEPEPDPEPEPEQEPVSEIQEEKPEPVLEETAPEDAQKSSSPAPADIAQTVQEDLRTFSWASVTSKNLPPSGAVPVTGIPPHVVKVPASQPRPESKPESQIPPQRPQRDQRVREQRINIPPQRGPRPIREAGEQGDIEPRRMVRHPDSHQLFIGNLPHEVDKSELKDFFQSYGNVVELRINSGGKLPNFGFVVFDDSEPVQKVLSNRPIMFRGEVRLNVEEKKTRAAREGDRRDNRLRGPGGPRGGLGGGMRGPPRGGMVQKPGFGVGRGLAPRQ
Constant ends, left off below: GGGAGUUCUACAGUCCGACGAUC … UGGAAUUCUCGGGUGUCAAGG
| Oligonucleotide | log2 enrichment |
| --- | --- |
| ACCACGCAGGUGGGCAUCUUUGGGAAGUGGGGCAAGGGGGGGAUAGGGAGGGGGGUAACACUUUGGGAACAGGUGGUCCCAGGUCGUUUC | -0.47 |
| UCAAGUCCUGUGCUACACAUCGUAUGUACCGAAUCGGGAGGGAAAGGGAAAGGGAAAGUAUUAUGUUACGCCGUUCGGAUCUGCACUUCC | 0.749 |
| AGUCCUGUGCUACACAUCGUAUGUACCGAAUCAAAUUUAAACCCAAAUUUUUUUAAAAAAGUAUUAUGUUACGCCGUUCGGAUCUGCACU | -0.509 |
| CCUCAAGUCCUGUGCUACACAUCGUAUGUACCGAAUCGGCCGGGCCGGCCGGAAAGUAUUAUGUUACGCCGUUCGGAUCUGCACUUCCAG | -0.489 |
| AGUCCUGUGCUACACAUCGUAUGUACCGAAUCGGGCCCCCGGGCCCCCGGCCCCCGGGAAAGUAUUAUGUUACGCCGUUCGGAUCUGCAC | -0.717 |
| GUCCUGUGCUACACAUCGUAUGUACCGAAUCGGGGAGGGGUUUUUUUGGGGUUUGGGGAAAGUAUUAUGUUACGCCGUUCGGAUCUGCAC | 0.921 |
| UGGGAGGUGGAUUUUGUUUAUUUUUUUAGCUCAUUUCCAGGGGUGGGAAUUUUUUUUUAAUAUGUGUCAUGAAUACAGUUGUUUUUGAAA | 1.41 |
| GUCCUGUGCUACACAUCGUAUGUACCGAAUCGGGAAAAAGGGGAAAAAGGGGAAAAAGGAAAGUAUUAUGUUACGCCGUUCGGAUCUGCA | -0.0563 |
| CCUCAAGUCCUGUGCUACACAUCGUAUGUACCGAAUCGGGUUGGUUGGUUGGGAAAGUAUUAUGUUACGCCGUUCGGAUCUGCACUUCCA | -0.294 |

Mixed results
| Molecule | target | test | test system | conditions | how to read | measurement | value |
| --- | --- | --- | --- | --- | --- | --- | --- |
| PhoQ, residues 284 288 289 292 302 303 AGHLVA | PhoP, residues 12 14 15 18 19 NMSSL (Escherichia coli, UniProt P23836) | Sort-seq, refers to: YFP reporter | E. coli | PhoQ-PhoP variant library, together with: 10 µM Mg2+ | reference: high Mg2+ state, higher = stronger signaling | fold induction | 15.6 |

Some of these lines once more (series 2):
| Oligonucleotide | E-score |
| --- | --- |
| ACCGGTAG | -0.268 |
| CCAAATTC | 0.075 |
| ATCCGAAA | 0.0455 |
| CTCTTTTA | 0.0544 |
| AGCTGTTA | 0.059 |
